# Measurements from different studies.
# Each line is one published result; not all experiments were run side by side. Numbers after ± are the reported error.
Structure (SMILES),test,test system,setting,endpoint,value
CCS(=O)(=O)Nc1ccc(Oc2ccc(F)cc2F)c(-c2cn(C)c(=O)c3[nH]ccc23)c1,malignant neoplasm progression leading to discontinuation,"human, relapsed/refractory AML","oral, dose not given",treatment-emergent adverse events,0%
CC(C)C[C@H](NC(=O)[C@H](CCCCN)NC(=O)OCC1c2ccccc2-c2ccccc21)C(=O)N[C@H](C(=O)N[C@@H](Cc1ccccc1)C(=O)N[C@@H](Cc1ccccc1)C(=O)N[C@@H](CCCCN)C(=O)NCC(=O)N[C@@H](Cc1ccccc1)C(=O)N[C@@H](C)C(=O)N[C@@H](Cc1c[nH]c2ccccc12)C(=O)N[C@@H](CC(N)=O)C(=O)N[C@H](C(=O)N[C@H]1CSSC[C@@H](C(=O)N[C@@H](Cc2c[nH]cn2)C(=O)N[C@@H](CCCNC(=N)N)C(=O)N[C@@H](CCCNC(=N)N)C(=O)N[C@@H](C)C(=O)N[C@@H](CC(N)=O)C(N)=O)NC(=O)[C@H](C(C)C)NC(=O)[C@H](CCCNC(=N)N)NC(=O)[C@H](C(C)C)NC(=O)CNC(=O)[C@H](CC(N)=O)NC(=O)[C@H](CCCNC(=N)N)NC(=O)[C@H](Cc2ccc(O)cc2)NC(=O)[C@H](C(C)C)NC1=O)C(C)C)C(C)C,,"ICR mice, blood","intraperitoneal, 10 mg/kg, day 5",lymphocytes,72.6 ± 1.7%
CCCCCCCCCCCCCCCC(=O)N[C@@H](CCC(=O)NCCCC[C@H](NC(=O)[C@H](CC(=O)O)NC(=O)[C@H](CO)NC(=O)[C@@H](NC(=O)[C@H](Cc1ccccc1)NC(=O)[C@@H](NC(=O)CNC(=O)[C@H](CCC(N)=O)NC(=O)[C@H](CO)NC(=O)[C@@H](N)Cc1c[nH]cn1)[C@@H](C)O)[C@@H](C)O)C(=O)N[C@@H](CO)C(=O)N[C@@H](CCC(=O)O)C(=O)N[C@@H](Cc1ccc(O)cc1)C(=O)N[C@@H](CC(C)C)C(=O)N[C@@H](CC(=O)O)C(=O)N[C@@H](CO)C(=O)N[C@@H](CCC(=O)O)C(=O)N[C@@H](CCCNC(=N)N)C(=O)N[C@@H](C)C(=O)N[C@@H](CCCNC(=N)N)C(=O)N[C@@H](CC(=O)O)C(=O)N[C@@H](Cc1ccccc1)C(=O)N[C@H](C(=O)N[C@@H](C)C(=O)N[C@@H](Cc1c[nH]c2ccccc12)C(=O)N[C@@H](CC(C)C)C(=O)N[C@@H](CCC(=O)O)C(=O)N[C@@H](C)C(=O)NCC(=O)NCC(=O)O)C(C)C)C(=O)O,measured: Headache,humans CrCl at least 90 mL/min,"subcutaneous, 100 µg single dose",treatment-related adverse events,25%
COc1cc2c(Oc3ccc4[nH]c(C)cc4c3F)ccnc2cc1OCC1(N)CC1,,paediatric refractory sarcoma patients,12 mg,ALT elevation incidence,54.5%
CC[C@H](C)CCCCC(=O)N[C@@H](CCN)C(=O)N[C@H](C(=O)N[C@@H](CCN)C(=O)N[C@H]1CCNC(=O)[C@H]([C@@H](C)O)NC(=O)[C@H](CCN)NC(=O)[C@H](CCN)NC(=O)[C@H](CC(C)C)NC(=O)[C@@H](Cc2ccccc2)NC(=O)[C@H](CCN)NC1=O)[C@@H](C)O,,"critically ill patients, plasma","dose not given, median, before fifth dose",Cmin at steady state,1400 ng/mL
CC(C)c1nc(N(C)S(C)(=O)=O)nc(-c2ccc(F)cc2)c1/C=C/[C@@H](O)C[C@@H](O)CC(=O)O,,healthy human subjects,"oral, dose not given, study CL-0537 safety set",incidence of Acne,0%
O=C(Nc1ccccc1)C1CCN(C(=O)Oc2cccnc2)CC1,measured: ear and labyrinth disorders,healthy women,"oral, 20 mg, 7 days",subjects with adverse event,0%
N[C@@H]1c2ccccc2OC12CCN(c1cnc3c(N4CCCc5ncccc54)n[nH]c3n1)CC2,,advanced solid tumour patients,"oral, 40 mg once daily",serious TEAE grade ≥3,25%
Cc1c(C(=O)O)ccc2c3n(nc12)[C@@H]1[C@H](C3)N(CC2CC2)[C@@]2(C(=O)Nc3cc(Cl)ccc32)[C@H]1c1cccc(Cl)c1F,,"athymic nude mice, orthotopic brain tumour PDX, tumour","10 mg/kg single, 24 h",tumour concentration,263 ± 43 nM
O[C@H]1CCCN[C@@H]1CCCn1cnc2c(Cl)c(Cl)ccc21,,"healthy humans, plasma","oral, 150 mg single dose",AUC(0-12),679 ng·h/mL
CO[C@H]1C[C@@H]2CC[C@@H](C)[C@@](O)(O2)C(=O)C(=O)N2CCCC[C@H]2C(=O)O[C@H]([C@H](C)C[C@@H]2CC[C@@H](OC(=O)NCCOCCOCCOCCOCCOCCOCCOCCOCCC(=O)N3CCc4cc(Cn5nc(-c6ccc7oc(N)nc7c6)c6c(N)ncnc65)ccc4C3)[C@H](OC)C2)C[C@@H](O)[C@H](C)/C=C(\C)[C@@H](O)[C@@H](OC)C(=O)[C@H](C)C[C@H](C)/C=C/C=C/C=C/1C,"phase 1 dose escalation, measured: fatigue",advanced solid tumour patients,"intravenous, 6 mg weekly, any grade",dose-reducing adverse events,0%
N=C(N)NCCC[C@@H](NC(=O)[C@@H](N)Cc1ccccc1)C(=O)N[C@@H](Cc1ccccc1)C(=O)N[C@@H](CCCCN)C(N)=O,LC-MS,human,"5 mg, 23.83 h",mean fraction excreted in urine,2.21%
C[C@]1(CO)Cc2ncn(-c3ccc(C#N)c(Cl)c3)c2C(=O)O1,,Japanese subjects,"dose not given, all doses total",drug-related Headache incidence,0%

# Some of these lines once more:
Structure (SMILES),test,test system,setting,endpoint,value
CC(C)c1nc(N(C)S(C)(=O)=O)nc(-c2ccc(F)cc2)c1/C=C/[C@@H](O)C[C@@H](O)CC(=O)O,,healthy human subjects,"oral, dose not given, study CL-0537 safety set",incidence of Acne,0%
